Published values pooled from the literature.
Protocols differ between the studies behind these lines. ± gives the spread as reported.

| SMILES | test | system | setting | tissue uptake [%ID/g] |
| --- | --- | --- | --- | --- |
| C=Cc1cc(O)cc2nc(-c3ccc(O)c([76Br])c3)oc12 | – | female C57BL/6 mouse, liver | 1 h, low dose | 0.54 ± 0.19 |
| COc1cc2ncnc(Oc3cccc(N[11C](=O)Nc4cc(C(C)(C)C(F)(F)F)on4)c3)c2cc1OC | – | Balb/c nude mouse, female, A375 melanoma xenograft, tumor | 6.6 MBq, 60 min | 1.85 ± 0.09 |
| N=C(N)NCc1ccc(C(=O)NCCCC[C@H](NC(=O)N[C@@H](CCC(=O)O)C(=O)O)C(=O)O)cc1[131I] | – | SCID mouse, PC-3 xenografts, heart | 4 h | 0.17 ± 0.09 |
| CCCC[C@H](NC(=O)CCOCCOCCNC(=O)CN1CCN(CC(=O)O)CCN(CC(=O)O)CCN(CC(=O)O)CC1)C(=O)N[C@H]1CC(=O)NCCCC[C@@H](C(N)=O)NC(=O)[C@H](Cc2c[nH]c3ccccc23)NC(=O)[C@H](CCCNC(=N)N)NC(=O)[C@@H](Cc2ccccc2)NC(=O)[C@H](Cc2c[nH]cn2)NC1=O [gallium-68 labelled] | biodistribution | C57BL/6J mouse male tumour-bearing, adrenal glands | 1 h post injection, unblocked | 0.3 ± 0.2 |
| N=C(N)NCc1ccc(C(=O)NCCCC[C@H](NC(=O)CCCCCCC(=O)NCCCC[C@H](NC(=O)N[C@@H](CCC(=O)O)C(=O)O)C(=O)O)C(=O)O)cc1[211At] | – | SCID mouse, PC-3 xenografts, muscle | 1 h | 0.38 ± 0.16 |
| C[S]1CC[S]2CC[P](CO)(CO)[99Tc+]12.[C-]#[O+].[C-]#[O+].[C-]#[O+] | – | female CF-1 mouse, large intestine | intravenous, 24 h | 2.7 |
| N=C(N)NCc1ccc(C(=O)NCCCC[C@H](NC(=O)N[C@@H](CCC(=O)O)C(=O)O)C(=O)O)cc1[211At] | – | SCID mouse, PC-3 xenografts, thyroid | 4 h | 0.75 ± 0.17 |
| CN[C@](C)(C[18F])C(=O)O | – | SCID mouse A549 xenograft, pancreas | 15 min post injection | 57 ± 10 |
| O=C(O)CC[C@H](NC(=O)O[C@@H](CCCCNC(=O)c1ccc([18F])cc1)C(=O)O)C(=O)O | – | mouse, PC-3 PIP/flu xenografts, small intestine | 90 min | 0.27 ± 0.11 |

A few entries again:
| SMILES | test | system | setting | tissue uptake [%ID/g] |
| --- | --- | --- | --- | --- |
| C=Cc1cc(O)cc2nc(-c3ccc(O)c([76Br])c3)oc12 | – | female C57BL/6 mouse, liver | 1 h, low dose | 0.54 ± 0.19 |
